Measured values gathered from unrelated publications.
Lines come from different studies, so protocols differ.
PIK3CB: Phosphatidylinositol 4,5-bisphosphate 3-kinase catalytic subunit beta isoform (PIK3CB, Homo sapiens, UniProt P42338)
UniProt P42338, sequence (whole entry, looked up): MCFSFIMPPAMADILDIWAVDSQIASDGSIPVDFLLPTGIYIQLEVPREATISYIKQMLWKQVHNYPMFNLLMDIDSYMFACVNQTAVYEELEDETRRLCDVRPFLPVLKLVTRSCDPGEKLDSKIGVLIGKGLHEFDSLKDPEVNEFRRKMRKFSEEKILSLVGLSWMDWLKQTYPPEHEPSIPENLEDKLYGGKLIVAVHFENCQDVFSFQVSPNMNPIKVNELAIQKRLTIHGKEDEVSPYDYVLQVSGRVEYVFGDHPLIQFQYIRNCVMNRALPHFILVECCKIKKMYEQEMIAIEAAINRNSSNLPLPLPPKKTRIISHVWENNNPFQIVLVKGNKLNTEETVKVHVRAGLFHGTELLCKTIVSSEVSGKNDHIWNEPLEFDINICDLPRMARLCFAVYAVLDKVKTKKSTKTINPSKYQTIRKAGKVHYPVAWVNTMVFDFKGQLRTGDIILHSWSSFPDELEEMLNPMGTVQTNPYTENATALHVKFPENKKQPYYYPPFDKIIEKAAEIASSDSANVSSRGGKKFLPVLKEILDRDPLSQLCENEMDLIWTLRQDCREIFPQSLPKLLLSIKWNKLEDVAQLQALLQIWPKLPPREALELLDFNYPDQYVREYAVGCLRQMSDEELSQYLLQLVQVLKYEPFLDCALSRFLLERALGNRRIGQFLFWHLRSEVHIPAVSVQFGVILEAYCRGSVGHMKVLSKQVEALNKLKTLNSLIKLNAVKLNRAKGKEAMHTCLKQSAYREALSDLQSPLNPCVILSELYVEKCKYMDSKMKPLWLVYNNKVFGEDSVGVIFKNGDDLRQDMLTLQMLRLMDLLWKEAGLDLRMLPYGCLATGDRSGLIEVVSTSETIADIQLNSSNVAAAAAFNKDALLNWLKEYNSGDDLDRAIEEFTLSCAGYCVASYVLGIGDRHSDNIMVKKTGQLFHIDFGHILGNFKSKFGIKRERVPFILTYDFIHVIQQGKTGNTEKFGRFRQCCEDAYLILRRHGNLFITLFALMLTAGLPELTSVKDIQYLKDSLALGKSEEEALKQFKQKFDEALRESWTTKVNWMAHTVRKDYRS
Genome polyprotein protease: Genome polyprotein, protease (Hepatitis C virus genotype 1b, UniProt O92972)
UniProt O92972, sequence (whole entry, looked up): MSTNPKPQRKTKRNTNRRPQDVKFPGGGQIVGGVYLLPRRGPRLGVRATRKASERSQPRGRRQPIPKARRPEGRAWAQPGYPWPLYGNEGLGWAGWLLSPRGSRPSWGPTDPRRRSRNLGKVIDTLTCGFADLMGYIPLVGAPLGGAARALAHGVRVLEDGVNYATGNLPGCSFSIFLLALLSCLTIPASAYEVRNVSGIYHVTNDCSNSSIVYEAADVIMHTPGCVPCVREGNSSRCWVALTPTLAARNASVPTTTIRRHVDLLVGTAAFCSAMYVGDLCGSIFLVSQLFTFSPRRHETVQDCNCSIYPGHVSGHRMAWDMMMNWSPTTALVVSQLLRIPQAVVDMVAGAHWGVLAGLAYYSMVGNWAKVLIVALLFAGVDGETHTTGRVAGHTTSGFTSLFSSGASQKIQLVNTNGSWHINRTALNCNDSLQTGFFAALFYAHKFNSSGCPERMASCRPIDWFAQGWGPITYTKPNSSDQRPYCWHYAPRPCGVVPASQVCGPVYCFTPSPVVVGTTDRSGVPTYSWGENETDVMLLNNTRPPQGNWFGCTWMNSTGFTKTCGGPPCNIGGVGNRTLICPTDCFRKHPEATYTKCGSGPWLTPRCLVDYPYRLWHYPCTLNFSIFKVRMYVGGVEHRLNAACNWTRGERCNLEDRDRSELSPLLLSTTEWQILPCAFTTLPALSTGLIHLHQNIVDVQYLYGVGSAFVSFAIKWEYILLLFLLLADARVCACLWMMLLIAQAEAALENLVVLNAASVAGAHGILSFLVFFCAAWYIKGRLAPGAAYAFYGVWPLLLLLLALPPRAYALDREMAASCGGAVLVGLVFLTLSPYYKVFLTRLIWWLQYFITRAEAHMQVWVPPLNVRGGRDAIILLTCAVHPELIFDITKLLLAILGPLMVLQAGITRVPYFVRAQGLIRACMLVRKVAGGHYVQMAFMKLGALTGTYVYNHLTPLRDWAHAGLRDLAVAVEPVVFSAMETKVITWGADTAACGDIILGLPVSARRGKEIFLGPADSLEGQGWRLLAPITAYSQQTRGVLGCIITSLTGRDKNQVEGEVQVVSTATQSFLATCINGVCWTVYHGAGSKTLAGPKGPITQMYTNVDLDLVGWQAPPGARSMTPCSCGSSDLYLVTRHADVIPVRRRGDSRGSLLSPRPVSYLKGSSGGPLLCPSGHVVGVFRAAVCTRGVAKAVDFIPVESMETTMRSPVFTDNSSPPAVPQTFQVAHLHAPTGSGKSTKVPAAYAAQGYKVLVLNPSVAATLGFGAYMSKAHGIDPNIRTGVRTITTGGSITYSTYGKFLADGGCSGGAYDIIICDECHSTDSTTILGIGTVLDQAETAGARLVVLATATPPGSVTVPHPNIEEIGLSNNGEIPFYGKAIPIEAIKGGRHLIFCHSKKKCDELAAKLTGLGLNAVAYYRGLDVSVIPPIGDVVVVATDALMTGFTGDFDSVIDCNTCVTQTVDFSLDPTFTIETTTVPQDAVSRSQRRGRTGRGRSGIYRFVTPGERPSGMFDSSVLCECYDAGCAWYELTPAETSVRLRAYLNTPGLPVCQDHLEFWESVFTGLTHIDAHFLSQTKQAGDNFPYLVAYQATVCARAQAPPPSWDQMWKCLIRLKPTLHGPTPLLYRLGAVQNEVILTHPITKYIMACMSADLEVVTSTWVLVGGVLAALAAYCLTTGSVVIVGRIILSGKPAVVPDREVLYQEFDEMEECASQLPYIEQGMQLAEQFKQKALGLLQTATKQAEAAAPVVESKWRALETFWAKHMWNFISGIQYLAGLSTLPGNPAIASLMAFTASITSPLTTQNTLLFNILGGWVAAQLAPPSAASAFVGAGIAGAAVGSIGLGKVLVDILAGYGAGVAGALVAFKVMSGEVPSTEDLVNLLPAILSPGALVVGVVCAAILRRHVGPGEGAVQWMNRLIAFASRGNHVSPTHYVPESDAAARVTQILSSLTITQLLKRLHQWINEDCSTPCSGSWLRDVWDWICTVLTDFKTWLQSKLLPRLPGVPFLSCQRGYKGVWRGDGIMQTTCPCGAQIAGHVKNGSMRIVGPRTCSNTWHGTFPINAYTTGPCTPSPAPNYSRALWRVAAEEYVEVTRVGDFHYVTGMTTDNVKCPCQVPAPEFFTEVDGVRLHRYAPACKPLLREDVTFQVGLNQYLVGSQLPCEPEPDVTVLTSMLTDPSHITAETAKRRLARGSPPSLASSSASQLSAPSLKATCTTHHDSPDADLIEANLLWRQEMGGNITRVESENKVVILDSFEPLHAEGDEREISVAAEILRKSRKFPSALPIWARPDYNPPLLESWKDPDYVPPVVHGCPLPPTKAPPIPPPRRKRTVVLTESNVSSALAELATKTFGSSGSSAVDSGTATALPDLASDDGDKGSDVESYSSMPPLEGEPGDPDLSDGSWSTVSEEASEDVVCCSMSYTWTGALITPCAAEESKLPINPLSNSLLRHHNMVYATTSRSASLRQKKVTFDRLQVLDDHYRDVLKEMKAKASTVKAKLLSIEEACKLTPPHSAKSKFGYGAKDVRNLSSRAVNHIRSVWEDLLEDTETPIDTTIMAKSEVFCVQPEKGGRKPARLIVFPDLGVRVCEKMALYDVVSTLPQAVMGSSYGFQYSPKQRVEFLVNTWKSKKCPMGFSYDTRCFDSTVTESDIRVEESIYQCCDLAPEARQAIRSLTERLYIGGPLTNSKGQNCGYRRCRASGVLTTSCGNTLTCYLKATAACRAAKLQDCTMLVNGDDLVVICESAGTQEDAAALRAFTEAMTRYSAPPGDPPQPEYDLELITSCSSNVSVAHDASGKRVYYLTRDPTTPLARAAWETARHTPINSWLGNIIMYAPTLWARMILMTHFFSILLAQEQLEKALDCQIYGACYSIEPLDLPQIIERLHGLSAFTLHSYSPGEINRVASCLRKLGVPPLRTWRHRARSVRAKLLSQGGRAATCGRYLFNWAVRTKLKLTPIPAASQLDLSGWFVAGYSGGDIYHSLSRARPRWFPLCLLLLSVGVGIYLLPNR
PSMB6: Proteasome subunit beta type-6 (PSMB6, Homo sapiens, UniProt P28072)
UniProt P28072, sequence (whole entry, looked up): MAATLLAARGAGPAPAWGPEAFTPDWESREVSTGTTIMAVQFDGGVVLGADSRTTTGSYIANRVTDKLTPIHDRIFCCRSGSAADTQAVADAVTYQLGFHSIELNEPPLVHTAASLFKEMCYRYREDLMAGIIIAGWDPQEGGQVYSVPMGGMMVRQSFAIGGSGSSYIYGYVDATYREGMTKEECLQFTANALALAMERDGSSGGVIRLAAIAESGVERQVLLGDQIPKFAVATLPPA
HDAC8: Histone deacetylase 8 (HDAC8, Homo sapiens, UniProt Q9BY41)
UniProt Q9BY41, sequence (whole entry, looked up): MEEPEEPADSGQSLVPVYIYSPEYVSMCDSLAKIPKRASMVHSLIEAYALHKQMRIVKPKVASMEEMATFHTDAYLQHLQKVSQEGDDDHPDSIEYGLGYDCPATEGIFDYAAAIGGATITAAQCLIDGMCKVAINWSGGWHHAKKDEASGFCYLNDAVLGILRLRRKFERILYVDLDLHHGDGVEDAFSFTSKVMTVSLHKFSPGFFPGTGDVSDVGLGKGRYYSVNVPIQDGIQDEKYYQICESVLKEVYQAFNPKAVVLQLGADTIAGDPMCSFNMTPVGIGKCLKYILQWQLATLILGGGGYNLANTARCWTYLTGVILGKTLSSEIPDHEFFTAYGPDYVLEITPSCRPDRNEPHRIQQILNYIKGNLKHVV
env: env (Human immunodeficiency virus 1, UniProt Q75760)
CDK2 with cyclin A: Cyclin-dependent kinase 2, with cyclin A (CDK2, Homo sapiens, UniProt P24941)
UniProt P35346, sequence (whole entry, unmodified, looked up): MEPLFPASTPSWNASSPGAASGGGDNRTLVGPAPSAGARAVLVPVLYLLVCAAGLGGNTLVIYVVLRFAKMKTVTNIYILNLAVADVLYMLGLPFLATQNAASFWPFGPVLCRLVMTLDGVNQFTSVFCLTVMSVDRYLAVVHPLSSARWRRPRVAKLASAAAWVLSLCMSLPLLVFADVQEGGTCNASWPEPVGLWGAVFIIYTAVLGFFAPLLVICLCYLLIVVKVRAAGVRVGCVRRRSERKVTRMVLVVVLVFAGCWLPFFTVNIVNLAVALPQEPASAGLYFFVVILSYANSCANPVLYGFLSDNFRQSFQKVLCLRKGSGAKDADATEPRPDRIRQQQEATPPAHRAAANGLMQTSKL

COc1cc(F)c(-c2cc(Cn3cnc4c(N)ncnc43)c(N3CCC[C@](N)([C@H](O)C(F)F)C3)cn2)cc1F  IC50 (Histone-lysine N-methyltransferase, H3 lysine-36 specific (NSD1, Homo sapiens, UniProt Q96L73); enzyme activity, inhibitor): 95 nM
COc1ccc2c(c1)CN(C(=O)CCN1CCC(Cc3ccccc3)CC1)CCS2  IC50 (Potassium voltage-gated channel subfamily A member 5 (KCNA5, Homo sapiens, UniProt P22460); IKur current, inhibitor, whole-cell patch clamp; stable cell line): 380 nM
Cc1nc(Nc2ccc3c(c2)/C(=C/c2c[nH]c4ccccc24)C(=O)N3)c2ccccc2n1  IC50 (PIK3CB; enzyme activity, inhibitor, ADP detection): 385 nM
C=CCn1c(=S)[nH]c2cc3ccccc3cc2c1=O  IC50 (Genome polyprotein protease; enzyme activity, inhibitor, FRET): 20400 nM
CC1Cc2ccccc2N1C1=C(c2ccc(F)cc2)C(=O)NC1=O (stereo not shown)  IC50 (Glycogen synthase kinase-3 beta (GSK3B, Homo sapiens, UniProt P49841); enzyme activity, inhibitor): 31800 nM
O=c1c2cc3ccccc3cc2[nH]c(=S)n1CCc1ccccc1  IC50 (Genome polyprotein protease; enzyme activity, inhibitor, FRET): 31600 nM
CC(C)C[C@H](NC(=O)[C@H](Cc1ccc(CN)cc1)NC(=O)[C@H](Cc1ccccc1)N=[N+]=[N-])C(=O)N[C@H](C(=O)[C@@]1(C)CO1)C1CCCCC1  IC50 (PSMB6; competitive ABPP; Raji cell lysate): > 10000 nM
CC(C)c1ccccc1OS(=O)(=O)Oc1cccc(C(=O)NO)c1  IC50 (HDAC8; enzyme activity, inhibitor, fluorescence): 317 nM
Cc1nn(-c2cccc(N)c2)c(=O)c2cnc(Nc3ccc(N4CCNCC4)cc3)nc12  IC50 (Protein kinase C alpha type (PRKCA, Homo sapiens, UniProt P17252); enzyme activity, inhibitor): > 10000 nM
CCOc1cc(CN2CCC3(CC2)CN(c2ccc(C(=O)O)cc2)C(=O)N3)c(C2CC2)cc1C  IC50 (Somatostatin receptor type 5 (SSTR5, Homo sapiens, UniProt P35346, I202A); cAMP level, antagonist, GloSensor; AD293; I202A mutant, bandwidth 5.39, together with: CST17 EC80 and forskolin): 8.91 nM
Cc1cc(NC2CCN(C)CC2)ccc1-c1cc2c(N3CCC[C@H](C(=O)NCc4ccc(OC(F)(F)F)cc4)C3)ncnc2[nH]1  IC50 (Inhibitor of nuclear factor kappa-B kinase subunit beta (IKBKB, Homo sapiens, UniProt O14920); enzyme activity, inhibitor, mobility shift): 2570 nM
CN(CCOCCOCCOCCOCCOCCOCCNc1cccc2c1C(=O)N(C1CCC(=O)NC1=O)C2=O)Cc1ccc(-c2[nH]c3cc(F)cc4c3c2CCNC4=O)cc1 (stereo not shown)  IC50 (Poly [ADP-ribose] polymerase 2 (PARP2, Homo sapiens, UniProt Q9UGN5); enzyme activity, inhibitor): 7.2 nM
COCCN(C)CC(=O)NC(Cc1ccc(-c2ccccc2)cc1)B(O)O (stereo not shown)  IC50 (Proteasome subunit beta type-10 / Proteasome subunit beta type-3 (Homo sapiens, UniProt P40306+P49720); β2i activity, inhibitor; immunoproteasome, together with: Ac-KQL-AMC): > 10000 nM
CC(C)CN(C)c1nc(N)c(C(=O)N=C(N)N)nc1Cl  IC50 (CatSper channel complex (Homo sapiens, UniProt Q7RTX7+Q86XQ3+Q8NEC5+Q96P56); calcium influx, inhibitor, FLIPR; human sperm; together with: high pH, high potassium): 12000 nM
CN1C(=O)/C(=N\c2ccc(Cl)cc2Br)c2ccccc21  IC50 (PIK3CB; enzyme activity, inhibitor, ADP detection): 47 nM
CCN(CC)CC(=O)Nc1cccc(-n2cc(-c3ccc4ccc(-c5cn(-c6cccc(NC(=O)CN(CC)CC)c6)nn5)cc4c3)nn2)c1  IC50 (Insulin receptor (INSR, Homo sapiens, UniProt P06213); enzyme activity, inhibitor): > 10000 nM
COc1ccc(CN2C3(NC(c4ccc(OC)cc4)C24C(=O)Nc2ccccc24)C(=O)Nc2ccccc23)cc1 (stereo not shown)  IC50 (PIK3CB; enzyme activity, inhibitor, ADP detection): 764 nM
Cc1c(COc2cc(OCc3cccc(C#N)c3)c(CN3CCCC[C@H]3C(=O)O)cc2Cl)cccc1-c1cccc(OCCCCCCC(=O)NO)c1  IC50 (Histone deacetylase 3 (HDAC3, Homo sapiens, UniProt O15379); enzyme activity, inhibitor): 15.4 nM
O=C1NCCC12CCN(c1c(Cl)cncc1-c1ccc(N3CCOCC3)cc1)CC2  IC50 (Cyclin-dependent kinase 8, with cyclin C (CDK8, Homo sapiens, UniProt P49336)): 20 nM
Cc1ccc(C(=O)Nc2ccnc(S(N)(=O)=O)c2)c(N2CCCC(F)(F)CC2)n1  IC50 (Sodium channel protein type 8 subunit alpha (SCN8A, Homo sapiens, UniProt Q9UQD0); Nav1.6 sodium current, inhibitor, automated patch clamp): > 33800 nM
C[C@@H](O)[C@@H]1NC(=O)[C@H](CCCCN)NC(=O)[C@@H](Cc2ccc(NC(N)=O)cc2)NC(=O)[C@H](Cc2ccc(O)cc2)NC(=O)[C@H](NC(=O)[C@H](Cc2ccc(Cl)cc2)NC(=O)CN2CCN(CC(=O)O)CCN(CC(=O)O)CCN(CC(=O)O)CC2)CSSC[C@@H](C(=O)N[C@@H](Cc2ccc3ccccc3c2)C(N)=O)NC1=O  IC50 (Somatostatin receptor type 5 (SSTR5, Homo sapiens, UniProt P35346); ligand displacement, radioligand): > 1000 nM
CNCc1ccc2c(c1)N(C(=O)OCCC(F)(F)F)[C@H](CNC(=N)N)[C@H]2NC(=O)C(=O)Nc1ccc(Cl)c(F)c1  IC50 (env; HIV-1 infection; Cf2Th-CD4/CCR5 cells; 48 h): 1600 nM
CCn1nc(Cl)c2c1-c1cnc(N)c(c1)O[C@H](C)c1cc(F)ccc1-c1nn(C)cc1C2  IC50 (NT-3 growth factor receptor (NTRK3, Homo sapiens, UniProt Q16288); enzyme activity, inhibitor; together with: 1 mM ATP): 96 nM
O=C(Nc1cc(-c2cccnc2)[nH]n1)C1CCC1  IC50 (CDK2 with cyclin A; radiometric; together with: 1 µM ATP): 6600 nM
O=C1C(Nc2ccc(Cl)cc2)c2ccccc2N1Cc1ccccc1 (stereo not shown)  IC50 (PIK3CB; enzyme activity, inhibitor, ADP detection): 50.7 nM
CC(=O)OC1CCC2(C)C(CCC3(C)C2CC=C2C4C(C)C(C)CCC4(C(=O)O)CCC23C)C1(C)C (stereo not shown)  IC50 (UDP-glucuronosyltransferase 1A10 (UGT1A10, Homo sapiens, UniProt Q9HAW8); enzyme activity, inhibitor): > 100000 nM
Nc1ncc(-c2cc(-c3cnn(CC(F)(F)F)c3)ncc2F)nc1C(=O)NC1CNCC(F)C1 (stereo not shown)  IC50 (Tyrosine-protein kinase Mer (MERTK, Homo sapiens, UniProt Q12866); enzyme activity, inhibitor, radiometric): 52 nM
Cc1nc(Nc2ccc3c(c2)/C(=C/c2ccccc2Cl)C(=O)N3C)c2ccccc2n1  IC50 (PIK3CB; enzyme activity, inhibitor, ADP detection): > 1000 nM
Fc1ccc(Nc2nc(NC3CCCCC3)c3ccccc3n2)cc1F  IC50 (Beta-2 adrenergic receptor (ADRB2, Homo sapiens, UniProt P07550, Q170L); β-arrestin2 recruitment, antagonist, BRET; HEK293; mutant Q170L, together with: isoprenaline 1 µM): 1260 nM
Cc1c(COc2cc(OCc3cccc(C#N)c3)c(CNC(CO)(CO)CO)cc2Cl)cccc1-c1cccc(OCCCCCCC(=O)NO)c1  IC50 (HDAC8; enzyme activity, inhibitor): > 1000 nM
O=C(Nc1cc(-c2c(F)cccc2F)[nH]n1)C1CCC1  IC50 (CDK2 with cyclin A; radiometric; together with: 1 µM ATP): 1900 nM
NCCCC[C@@H]1NC(=O)CNC(=O)[C@H](N)CSSC[C@H](C(N)=O)NC(=O)[C@@H](CCC(=O)O)NC(=O)[C@@H](CO)NC(=O)[C@H](CC(=O)O)NC(=O)CNC1=O  IC50 (Integrin alpha-V/beta-3 (Homo sapiens, UniProt P05106+P06756); ligand displacement, flow cytometry): > 20000 nM
CC(C)C[C@H](NC(=O)[C@H](Cc1ccc(CN)cc1)NC(=O)[C@H](Cc1ccccc1)N=[N+]=[N-])C(=O)N[C@@H](CC1CCCC2CCCCC21)C(=O)[C@@]1(C)CO1 (stereo partly shown)  IC50 (PSMB6; competitive ABPP; Raji cell lysate): > 10000 nM
O=C(CCl)NCCC(c1ccccc1)c1ccco1 (stereo not shown)  IC50 (UGT74F1 (Arabidopsis thaliana, UniProt O22820); enzyme activity, inhibitor): 163000 nM
C[C@H](CCC(=O)NCCS(=O)(=O)O)[C@H]1CC[C@H]2[C@@H]3[C@@H](O)C[C@@H]4C[C@H](O)CC[C@]4(C)[C@H]3CC[C@]12C  IC50 (Hepatic sodium/bile acid cotransporter (SLC10A1, Homo sapiens, UniProt Q14973)): 23800 nM
CNCc1ccc2c(c1)N(C(=O)OCc1ccccc1)[C@H](CNC(=N)N)[C@H]2NC(=O)C(=O)Nc1ccc(Cl)c(F)c1  IC50 (env; HIV-1 infection; Cf2Th-CD4/CCR5 cells; 48 h): 570 nM
Nc1ncc2c(n1)-c1c([nH]c3ccc(C4=CCOCC4)cc13)CCC2  IC50 (Myosin light chain kinase family member 4 (MYLK4, Homo sapiens, UniProt Q86YV6); target engagement in cells, BRET): 14 nM
O=C(CCc1ccco1)N1C(=O)C2(NC(c3ccc(F)cc3)C3(C(=O)Nc4ccccc43)N2Cc2ccc(F)cc2)c2ccccc21 (stereo not shown)  IC50 (PIK3CB; enzyme activity, inhibitor, ADP detection): 962 nM
COc1cc(-n2cc3cc(F)cc(C(N)=O)c3n2)cc(Cl)c1C1CC(O)(CCO)Cc2ccccc21 (stereo not shown)  IC50 (Poly [ADP-ribose] polymerase 1 (PARP1, Homo sapiens, UniProt P09874); enzyme activity, inhibitor, radiometric): 0.07 nM
CC1(C)C[N+]2=Cc3ccc4[n]3[Au-]23[n]2c(ccc2-c2nc5ccccc5nc2-4)C=[N+]3C1.F[P-](F)(F)(F)(F)F  IC50 (DNA topoisomerase 1 (TOP1, Homo sapiens, UniProt P11387); enzyme activity, inhibitor): 8500 nM

For quick reference, copied from above:
Nc1ncc(-c2cc(-c3cnn(CC(F)(F)F)c3)ncc2F)nc1C(=O)NC1CNCC(F)C1 (stereo not shown)  IC50 (Tyrosine-protein kinase Mer (MERTK, Homo sapiens, UniProt Q12866); enzyme activity, inhibitor, radiometric): 52 nM
Cc1nc(Nc2ccc3c(c2)/C(=C/c2ccccc2Cl)C(=O)N3C)c2ccccc2n1  IC50 (PIK3CB; enzyme activity, inhibitor, ADP detection): > 1000 nM
Fc1ccc(Nc2nc(NC3CCCCC3)c3ccccc3n2)cc1F  IC50 (Beta-2 adrenergic receptor (ADRB2, Homo sapiens, UniProt P07550, Q170L); β-arrestin2 recruitment, antagonist, BRET; HEK293; mutant Q170L, together with: isoprenaline 1 µM): 1260 nM
Cc1c(COc2cc(OCc3cccc(C#N)c3)c(CNC(CO)(CO)CO)cc2Cl)cccc1-c1cccc(OCCCCCCC(=O)NO)c1  IC50 (HDAC8; enzyme activity, inhibitor): > 1000 nM
O=C(Nc1cc(-c2c(F)cccc2F)[nH]n1)C1CCC1  IC50 (CDK2 with cyclin A; radiometric; together with: 1 µM ATP): 1900 nM
